Results pooled from the literature.
“And” joins repeats or separate records; there may be more than shown. ± marks the error that the study gave.
spsB: Signal peptidase IB (spsB, Staphylococcus aureus, UniProt Q5HHB9)
TRPM8: Transient receptor potential cation channel subfamily M member 8 (TRPM8, Homo sapiens, UniProt Q7Z2W7)
ERN1: Serine/threonine-protein kinase/endoribonuclease IRE1 (ERN1, Homo sapiens, UniProt O75460)
TNIK: TRAF2 and NCK-interacting protein kinase (TNIK, Homo sapiens, UniProt Q9UKE5)

SMILES	target	test	system	conditions	scale	remaining activity
CNC(=O)c1ccc(NC(=O)Nc2ccc(Cl)c(C(F)(F)F)c2)cc1	spsB	peptidase activity, activator, FRET peptide cleavage	Staphylococcus aureus, membranes	50 µM	baseline: DMSO	170%
C=CC(=O)N1CCC[C@@H](n2nc(-c3ccc(Oc4ccccc4)cc3)c3c(N)ncnc32)C1	Insulin-like growth factor-binding protein 5 (Homo sapiens, UniProt P24593)	–	–	10 µM	–	21.8%
O=C1Cc2c([nH]c3ccc(Br)cc23)-c2ccccc2N1	TRPM8	antagonist	HEK293	5 µM	baseline: control	87.7 ± 2.17%
COc1cc(Nc2ncc3c(n2)-c2ccc(Cl)cc2C(c2c(F)cccc2OC)=NC3)ccc1C(=O)O	EPHA4	kinase activity	–	1 µM	–	6%
CC(C)(C)n1nc(Cc2cccc3ccccc23)c2c(N)ncnc21	TRPM8	antagonist	HEK293	5 µM	baseline: control	101 ± 8.05%
O=C(O)c1ccc(Nc2ncc3c(n2)-c2ccc(Cl)cc2C(c2c(F)cccc2F)=NC3)cc1	ALK4(h)	kinase activity	–	1 µM	–	115%
O=C(Nc1ccc(Nc2ccccc2)cc1)Nc1ccc(Cl)c(C(F)(F)F)c1	spsB	peptidase activity, activator, FRET peptide cleavage	Staphylococcus aureus, membranes	50 µM	baseline: DMSO	186%
C=CC(=O)N1CCC([C@@H]2CCNc3c(C(N)=O)c(-c4ccc(Oc5ccccc5)cc4)nn32)CC1	LCK (Homo sapiens, UniProt P06239)	kinase activity, inhibitor, HotSpot radiometric	–	100 nM, with: ATP 10 µM	–	56.7 ± 0.5%
COc1cc(N2CCN(C)CC2)ccc1Nc1nc(N)n(C(=O)NCc2ccccc2S(=O)(=O)C(C)C)n1	ERN1	enzyme activity	–	10 µM	baseline: control	8.9%
COc1cc(O)c(CC=C(C)C)c(O)c1C(=O)/C=C/c1ccc(O)cc1	Thyroxine 5-deiodinase (DIO3, Homo sapiens, UniProt P55073, Y257F)	–	–	200 µM, 0.1667 h, with: T3	baseline: DMSO	0.394%
Cc1cc(Nc2cc(N3CCN(C)CC3)nc(Sc3ccc(NC(=O)C4CC4)cc3)n2)[nH]n1	WNK3 (Homo sapiens, UniProt Q9BYP7)	kinase activity, KinaseProfiler	–	0.03 µM, species human	baseline: control	108%
CC(C)Oc1cc(N2CCN(C)CC2)ccc1Nc1nc(N)n(C(=O)NCc2ccccc2S(=O)(=O)C(C)C)n1	ERN1	enzyme activity	–	10 µM	baseline: control	22%
NC/C(=C\F)COc1cccc(Cn2c(=S)[nH]c(=O)c3[nH]cnc32)c1	Peroxidasin homolog (PXDN, Homo sapiens, UniProt Q92626)	enzyme activity, inhibitor, Amplex UltraRed	–	2.5 µM	baseline: control	84.5% and 87.8%
COc1cc(-c2cncc3c2CN(C)Cc2cc(N4CCNCC4)ccc2-3)cc(OC)c1OC	PRKCG (Homo sapiens, UniProt P05129)	kinase activity	–	1 µM, human enzyme, with: ATP 10 µM	baseline: DMSO control	100%
O=C(Nc1ccc(Cc2ccccc2)cc1)Nc1ccc(Cl)c(C(F)(F)F)c1	spsB	peptidase activity, activator, FRET peptide cleavage	Staphylococcus aureus, membranes	10 µM	baseline: DMSO	120%
COc1cc(F)ccc1-c1ncnc(Nc2cccc(C[S@](C)(=N)=O)c2)n1	RPS6KA1 (Homo sapiens, UniProt Q15418)	kinase activity	–	10 µM, with: 10 µM ATP	–	85%
O=C1NC(=O)/C(=C/c2ccc(-c3ccc(F)cc3O)o2)S1	PKN2 (Homo sapiens, UniProt Q16513)	enzyme activity	–	10 µM	–	88%
CC[n+]1c(/C=C/N(C)c2ccccc2)n(-c2ccccc2)c2ccc(-c3nc4ccccc4s3)cc21	TRPM8	antagonist	HEK293	5 µM	baseline: control	42 ± 5.16%
CCc1ccc(NC(=O)Nc2ccc(Cl)c(C(F)(F)F)c2)cc1	spsB	peptidase activity, activator, FRET peptide cleavage	Staphylococcus aureus, membranes	10 µM	baseline: DMSO	120%

SMILES	target	test	system	conditions	scale	remaining activity
COc1ccc(F)cc1C(=O)NCc1ccc(-c2nn([C@@H](C)C(F)(F)F)c(N)c2C(N)=O)cc1	TNIK	kinase activity, inhibitor, HotSpot radiometric	–	100 nM, with: ATP 10 µM	–	73.1 ± 0.1%
COc1cc2ncnc(Nc3ccc(NC(=O)c4ccccc4)cc3)c2cc1OC	TRPM8	antagonist	HEK293	5 µM	baseline: control	106 ± 7.52%
CNc1ncc2c(/C=C/C(=O)N3CCC(OC)CC3)nn(Cc3cccc(C(F)(F)F)c3)c2n1	AKT2 (Homo sapiens, UniProt P31751)	kinase activity, inhibitor	–	1 µM	baseline: untreated control	98%
O=C(NC1CCC1)c1ccc2nc(-c3cccc(NS(=O)(=O)NCCN4CCCCC4)c3)cn2c1	TNIK	enzyme activity	–	10 µM	–	88%
COc1cc(N2CCN(C)CC2)ccc1Nc1nc(N)n(C(=S)NCc2c(Cl)cccc2Cl)n1	CSNK1A1L (Homo sapiens, UniProt Q8N752)	enzyme activity	–	10 µM	baseline: control	34%
CCN(CC)CCNC(=O)c1c(C)[nH]c(/C=C2\C(=O)Nc3ccc(Cl)cc32)c1C	TRPM8	antagonist	HEK293	5 µM	baseline: control	94.3 ± 6.71%
O=C(Nc1ccc(N2CCOCC2)cc1)Nc1ccc(Cl)c(C(F)(F)F)c1	spsB	peptidase activity, activator, FRET peptide cleavage	Staphylococcus aureus, membranes	10 µM	baseline: DMSO	102%
Cc1ccc2c(c1)C(=O)[C@]1(O)CCN(c3ccc([N+](=O)[O-])cc3)C1=N2	Myosin-7 (MYH7, Bos taurus, UniProt Q9BE39)	actin-activated ATPase activity, inhibitor	–	500 µM	–	~2%
COc1cc2ncnc(Nc3ccc(OCc4ccccc4)cc3)c2cc1OC	TRPM8	antagonist	HEK293	5 µM	baseline: control	95.4 ± 10.7%
C=CC(=O)N1CCC[C@@H](n2nc(-c3ccc(Oc4ccccc4)cc3)c3c(N)ncnc32)C1	TNIK	kinase activity, inhibitor, HotSpot radiometric	–	100 nM, with: ATP 10 µM	–	72.4 ± 0.9%
Cc1cc(NC(=O)c2cccc(NC(=O)/C=C/CN(C)C)c2)ccc1Nc1nccc(-c2cccnc2)n1	MAPK8 (Homo sapiens, UniProt P45983)	enzyme activity, inhibitor	–	0.5487 µM, 18 h, unit not given, with: GSH 10 mM pre-incubation	baseline: vehicle	0.98
CNC(=O)c1cc(Oc2ccc(N(C)C(=O)Nc3ccc(Cl)c(C(F)(F)F)c3)cc2)ccn1	spsB	peptidase activity, activator, FRET peptide cleavage	Staphylococcus aureus, membranes	100 µM	baseline: DMSO	130%
CC#CC(=O)N1CCC[C@H]1c1nc(-c2ccc(C(=O)Nc3ccccn3)cc2)c2c(N)nccn12	Cyclin-dependent kinase 19, with cyclin C (CDK19, Homo sapiens, UniProt Q9BWU1)	kinase activity, inhibitor, HotSpot radiometric	–	100 nM, with: ATP 10 µM	–	47.8 ± 0.4%
CCN(CCO)CCCC(C)Nc1ccnc2cc(Cl)ccc12 (stereo not shown)	Potassium voltage-gated channel subfamily KQT member 1, with KCNE1 (KCNQ1, Homo sapiens, UniProt P51787)	IKs current, patch clamp	HEK293	30 µM	baseline: pre-drug current	96.4%
COc1cc2ncnc(Nc3ccc(Oc4ccccc4)cc3)c2cc1OC	TRPM8	antagonist	HEK293	5 µM	baseline: control	108 ± 6.8%
CN(C(=O)Nc1ccc(Cl)c(C(F)(F)F)c1)c1ccc2c(c1)OC(F)(F)O2	spsB	peptidase activity, activator, FRET peptide cleavage	Staphylococcus aureus, membranes	100 µM	baseline: DMSO	141%
COc1ccc(CNC(=O)Nc2ncc([N+](=O)[O-])s2)cc1	TRPM8	antagonist	HEK293	5 µM	baseline: control	95.9 ± 10.8%
O=C(Nc1cccc(C(F)(F)F)c1)Nc1ccc2c(c1)OC(F)(F)O2	spsB	peptidase activity, activator, FRET peptide cleavage	Staphylococcus aureus, membranes	50 µM	baseline: DMSO	239%
